Experimental data of several laboratories.
± gives the spread as reported.

With `CN(C)CC1CCCCC1(O)c1cccc(O)c1` (stereo not shown) the Papp A-to-B was 6.8 ± 0.7 ×10⁻⁶ cm/s (human P-glycoprotein; Caco-2 TC7 monolayer; 100 µM, 3 h, apical pH 6.8, basolateral pH 7.4, added: cyclosporine A 10 µM).
With `N[C@]1(c2ccccc2Cl)CCC[C@H](O)C1=O` the AUC(0-inf) was 13600 ± 1660 ng·h/mL (Wistar rat, plasma; oral, 20 mg/kg).
With `C[C@@](O)(C(F)F)[C@H](NC(=O)c1ccc(C#CC#CC2CC2)cc1)C(=O)NO` the Cmax was 4.4 µg/mL (dog, plasma; intravenous, 10 mg/kg).
For `CSCC[C@@H]1NC(=O)[C@@H]2CSSC[C@H](NC(=O)[C@H](CO)NC(=O)[C@H](C)N)C(=O)N[C@@H](CCCNC(=N)N)C(=O)N[C@@H]([C@@H](C)O)C(=O)N3CCC[C@H]3C(=O)N[C@@H](CCCCN)C(=O)N[C@@H](CC(=O)O)C(=O)N[C@H]3CSSC[C@H](NC(=O)[C@H](CCCCN)NC(=O)[C@H](CCCNC(=N)N)NC(=O)[C@H](CC(N)=O)NC1=O)C(=O)N[C@@H](CCCCN)C(=O)N[C@H]1CSSC[C@H](NC(=O)[C@@H]4CCCN4C(=O)[C@H](CC(=O)O)NC(=O)[C@H](C)NC3=O)C(=O)N[C@@H](C)C(=O)N[C@@H](CCCCN)C(=O)N[C@@H](CCC(=O)O)C(=O)N[C@@H]([C@@H](C)O)C(=O)NCC(=O)N[C@@H](CSSC[C@@H](C(N)=O)NC(=O)[C@H](CCCNC(=N)N)NC(=O)[C@H](CC(N)=O)NC1=O)C(=O)N1CCC[C@H]1C(=O)N[C@@H](Cc1ccc(O)cc1)C(=O)NCC(=O)N[C@@H](CCCCN)C(=O)N2`, “blood urea nitrogen” read 11.4 mg/dL (DA rat, pristane-induced arthritis, serum; subcutaneous, 0.1 mg/kg every other day, 21 days).
`COc1ccc(CNc2nc(N3CCC[C@H]3CO)ncc2C(=O)NNC(=O)c2cnc(N3CCC[C@H]3CO)nc2NCc2ccc(OC)c(Cl)c2)cc1Cl` gave a revertant count of 142 ± 6 (Salmonella typhimurium; TA97a; 62.5 µg/plate, 48 h).
The AUC(0-inf) of `CC[C@H](C)C(=O)N1CCC(NC(=O)Nc2ccc(OC(F)(F)F)c(F)c2)CC1` is reported as 4330 ng·h/mL (human, plasma; oral, 8 mg, fed).
For `CCC(=O)N(C)c1ccc(Cl)c(Cl)c1`, the revertants was 0 revertants/plate (Salmonella typhimurium; Ames test; TA1537; 0.05 mg/plate, without S9 activation).
`COc1cc(C(=O)NCCOCCOCCOCCNC(=O)c2ccc([18F])nc2)ccc1NC(=O)C1NC(CC(C)(C)C)C(C#N)(c2ccc(Cl)cc2F)C1c1cccc(Cl)c1F` (stereo not shown) has a tracer uptake of 0.38 %ID/g (HepG2 tumour model; host not given, lung; 4 h, tumour-bearing).
`CN[C@](C)(C[18F])C(=O)O` gave a tracer uptake of 1.5 %ID/g (SK-OV-3 tumour model; host not given, muscle; 30 min, tumour-bearing).
With `COc1ccc(CNc2nc(N3CCC[C@H]3CO)ncc2C(=O)NN)cc1Cl` the revertant count was 55 ± 2 (Salmonella typhimurium; TA1535; 250 µg/plate, 48 h).
